Results gathered from unrelated publications.
Every numbered part comes from another study and shows a few of its results, in no order.
UniProt Q04759, sequence (whole entry, looked up): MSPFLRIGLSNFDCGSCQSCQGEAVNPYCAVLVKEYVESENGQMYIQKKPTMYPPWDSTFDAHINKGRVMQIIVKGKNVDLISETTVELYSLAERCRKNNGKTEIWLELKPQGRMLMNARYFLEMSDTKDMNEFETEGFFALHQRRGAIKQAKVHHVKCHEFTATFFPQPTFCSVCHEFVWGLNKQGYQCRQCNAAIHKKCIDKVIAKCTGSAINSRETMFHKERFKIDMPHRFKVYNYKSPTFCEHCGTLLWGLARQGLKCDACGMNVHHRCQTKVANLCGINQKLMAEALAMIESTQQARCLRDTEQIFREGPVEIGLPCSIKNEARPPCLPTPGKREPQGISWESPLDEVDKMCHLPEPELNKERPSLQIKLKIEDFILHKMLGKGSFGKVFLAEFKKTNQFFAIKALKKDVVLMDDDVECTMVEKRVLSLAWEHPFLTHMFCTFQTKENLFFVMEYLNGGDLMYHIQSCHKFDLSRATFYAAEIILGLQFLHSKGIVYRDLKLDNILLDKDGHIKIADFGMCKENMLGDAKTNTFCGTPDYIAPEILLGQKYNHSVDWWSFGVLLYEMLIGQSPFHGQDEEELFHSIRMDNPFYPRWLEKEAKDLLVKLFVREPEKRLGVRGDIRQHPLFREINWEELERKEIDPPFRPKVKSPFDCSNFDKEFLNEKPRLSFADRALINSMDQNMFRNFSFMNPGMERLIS
UniProt P42680, sequence (whole entry, looked up): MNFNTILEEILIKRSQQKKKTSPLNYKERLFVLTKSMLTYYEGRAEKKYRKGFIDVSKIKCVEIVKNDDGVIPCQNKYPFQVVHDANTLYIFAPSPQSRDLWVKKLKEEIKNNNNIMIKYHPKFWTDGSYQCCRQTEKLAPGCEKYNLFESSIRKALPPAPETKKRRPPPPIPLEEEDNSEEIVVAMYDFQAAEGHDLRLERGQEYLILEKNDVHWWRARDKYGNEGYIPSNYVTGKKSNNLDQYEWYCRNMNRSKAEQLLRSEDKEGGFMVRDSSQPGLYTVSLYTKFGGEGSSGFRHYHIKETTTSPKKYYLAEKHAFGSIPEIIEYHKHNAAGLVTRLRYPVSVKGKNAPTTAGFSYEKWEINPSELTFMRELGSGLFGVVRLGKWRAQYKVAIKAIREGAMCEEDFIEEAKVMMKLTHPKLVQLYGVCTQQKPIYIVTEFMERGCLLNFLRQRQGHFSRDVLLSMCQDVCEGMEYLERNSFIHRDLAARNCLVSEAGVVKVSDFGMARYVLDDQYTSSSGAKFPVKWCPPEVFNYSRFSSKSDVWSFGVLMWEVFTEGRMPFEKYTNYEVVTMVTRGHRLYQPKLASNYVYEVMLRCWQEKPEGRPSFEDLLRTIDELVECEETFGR
UniProt Q8N5S9, sequence (whole entry, looked up): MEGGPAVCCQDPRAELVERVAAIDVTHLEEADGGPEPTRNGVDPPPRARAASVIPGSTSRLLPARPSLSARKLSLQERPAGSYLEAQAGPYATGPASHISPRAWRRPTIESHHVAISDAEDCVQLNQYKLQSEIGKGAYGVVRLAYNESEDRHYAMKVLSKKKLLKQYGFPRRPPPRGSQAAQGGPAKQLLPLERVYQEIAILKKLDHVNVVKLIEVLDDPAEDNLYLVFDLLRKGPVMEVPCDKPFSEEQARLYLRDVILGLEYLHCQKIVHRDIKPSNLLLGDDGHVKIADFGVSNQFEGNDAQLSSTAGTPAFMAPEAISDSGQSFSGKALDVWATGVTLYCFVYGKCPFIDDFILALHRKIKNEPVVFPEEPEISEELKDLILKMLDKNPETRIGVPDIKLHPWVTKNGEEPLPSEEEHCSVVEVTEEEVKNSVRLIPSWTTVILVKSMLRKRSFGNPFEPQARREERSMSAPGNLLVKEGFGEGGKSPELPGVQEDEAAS
UniProt P29317, sequence (whole entry, looked up): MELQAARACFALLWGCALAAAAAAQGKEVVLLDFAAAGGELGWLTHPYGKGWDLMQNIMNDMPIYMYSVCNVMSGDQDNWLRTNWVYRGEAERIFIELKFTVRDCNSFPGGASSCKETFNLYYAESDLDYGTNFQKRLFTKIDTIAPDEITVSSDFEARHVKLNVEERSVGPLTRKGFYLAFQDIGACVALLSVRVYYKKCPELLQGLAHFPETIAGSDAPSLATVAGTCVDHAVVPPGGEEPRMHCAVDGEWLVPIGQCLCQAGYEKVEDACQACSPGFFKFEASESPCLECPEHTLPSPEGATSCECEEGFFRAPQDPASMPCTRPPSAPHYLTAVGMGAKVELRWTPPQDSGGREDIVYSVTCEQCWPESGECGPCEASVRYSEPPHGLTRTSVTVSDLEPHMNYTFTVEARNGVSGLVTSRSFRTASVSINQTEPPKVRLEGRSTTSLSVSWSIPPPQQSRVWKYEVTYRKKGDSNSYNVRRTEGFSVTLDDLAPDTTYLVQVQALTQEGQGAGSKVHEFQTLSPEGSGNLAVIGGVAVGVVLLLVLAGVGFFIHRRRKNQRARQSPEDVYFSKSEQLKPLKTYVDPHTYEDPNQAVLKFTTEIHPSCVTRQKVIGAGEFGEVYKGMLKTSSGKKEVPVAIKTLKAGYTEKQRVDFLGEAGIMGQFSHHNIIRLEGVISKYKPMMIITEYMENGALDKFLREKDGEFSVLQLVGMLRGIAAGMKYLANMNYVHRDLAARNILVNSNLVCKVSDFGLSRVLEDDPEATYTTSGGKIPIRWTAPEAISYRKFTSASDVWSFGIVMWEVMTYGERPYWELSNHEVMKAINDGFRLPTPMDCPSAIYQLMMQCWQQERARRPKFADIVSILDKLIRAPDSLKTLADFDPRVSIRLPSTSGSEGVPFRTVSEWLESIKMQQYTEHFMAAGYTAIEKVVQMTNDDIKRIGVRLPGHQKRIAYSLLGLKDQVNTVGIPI
UniProt P13945, sequence (whole entry, looked up): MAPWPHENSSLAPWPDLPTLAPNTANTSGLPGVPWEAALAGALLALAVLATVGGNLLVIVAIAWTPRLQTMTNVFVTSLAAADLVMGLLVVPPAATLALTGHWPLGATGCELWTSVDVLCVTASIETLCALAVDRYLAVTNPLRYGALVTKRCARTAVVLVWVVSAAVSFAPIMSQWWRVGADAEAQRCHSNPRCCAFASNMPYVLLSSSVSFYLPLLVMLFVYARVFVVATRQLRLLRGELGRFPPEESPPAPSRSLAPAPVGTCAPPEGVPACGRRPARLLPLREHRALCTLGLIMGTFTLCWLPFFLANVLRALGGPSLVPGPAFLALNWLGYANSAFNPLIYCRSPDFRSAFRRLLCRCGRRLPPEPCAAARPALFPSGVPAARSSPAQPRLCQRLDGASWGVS
UniProt P41146, sequence (whole entry, looked up): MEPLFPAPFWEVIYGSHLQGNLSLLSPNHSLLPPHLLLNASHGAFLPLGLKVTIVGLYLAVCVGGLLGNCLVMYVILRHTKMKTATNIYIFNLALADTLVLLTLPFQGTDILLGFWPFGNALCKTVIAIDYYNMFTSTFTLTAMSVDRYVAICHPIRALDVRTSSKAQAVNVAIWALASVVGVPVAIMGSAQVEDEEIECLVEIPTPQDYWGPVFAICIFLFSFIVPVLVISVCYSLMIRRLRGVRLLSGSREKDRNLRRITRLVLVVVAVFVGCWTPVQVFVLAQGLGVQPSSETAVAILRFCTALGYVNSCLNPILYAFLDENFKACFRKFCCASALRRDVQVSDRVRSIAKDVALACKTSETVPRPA
UniProt O60674, sequence (whole entry, looked up): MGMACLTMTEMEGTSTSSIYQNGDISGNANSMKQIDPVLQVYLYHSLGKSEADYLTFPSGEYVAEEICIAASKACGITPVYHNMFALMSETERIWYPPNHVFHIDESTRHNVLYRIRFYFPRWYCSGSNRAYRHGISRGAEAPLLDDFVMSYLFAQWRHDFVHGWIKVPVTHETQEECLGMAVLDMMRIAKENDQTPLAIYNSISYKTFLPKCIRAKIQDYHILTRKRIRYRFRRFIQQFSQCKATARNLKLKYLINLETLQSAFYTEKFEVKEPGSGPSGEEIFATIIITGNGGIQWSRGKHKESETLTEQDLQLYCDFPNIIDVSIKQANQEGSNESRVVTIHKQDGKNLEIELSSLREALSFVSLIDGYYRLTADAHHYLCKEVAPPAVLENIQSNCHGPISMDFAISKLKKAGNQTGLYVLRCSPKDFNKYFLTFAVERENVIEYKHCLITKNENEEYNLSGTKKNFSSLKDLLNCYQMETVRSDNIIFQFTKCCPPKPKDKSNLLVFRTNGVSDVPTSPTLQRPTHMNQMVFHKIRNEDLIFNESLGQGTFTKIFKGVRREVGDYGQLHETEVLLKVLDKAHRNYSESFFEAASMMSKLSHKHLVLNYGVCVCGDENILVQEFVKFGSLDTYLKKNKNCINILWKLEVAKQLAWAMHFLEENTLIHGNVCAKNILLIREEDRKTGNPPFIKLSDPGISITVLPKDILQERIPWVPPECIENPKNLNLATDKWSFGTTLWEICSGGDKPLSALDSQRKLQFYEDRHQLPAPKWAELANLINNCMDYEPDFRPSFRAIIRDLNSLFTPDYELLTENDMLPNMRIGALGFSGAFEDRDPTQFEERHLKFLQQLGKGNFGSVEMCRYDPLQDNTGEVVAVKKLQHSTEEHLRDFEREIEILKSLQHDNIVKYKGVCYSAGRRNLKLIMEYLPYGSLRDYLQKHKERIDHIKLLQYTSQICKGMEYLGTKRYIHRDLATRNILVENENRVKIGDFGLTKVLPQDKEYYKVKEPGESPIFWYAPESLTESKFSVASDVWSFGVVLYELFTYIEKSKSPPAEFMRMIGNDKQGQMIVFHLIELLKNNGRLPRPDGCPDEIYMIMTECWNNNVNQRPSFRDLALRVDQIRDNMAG
UniProt Q00535, sequence (whole entry, looked up): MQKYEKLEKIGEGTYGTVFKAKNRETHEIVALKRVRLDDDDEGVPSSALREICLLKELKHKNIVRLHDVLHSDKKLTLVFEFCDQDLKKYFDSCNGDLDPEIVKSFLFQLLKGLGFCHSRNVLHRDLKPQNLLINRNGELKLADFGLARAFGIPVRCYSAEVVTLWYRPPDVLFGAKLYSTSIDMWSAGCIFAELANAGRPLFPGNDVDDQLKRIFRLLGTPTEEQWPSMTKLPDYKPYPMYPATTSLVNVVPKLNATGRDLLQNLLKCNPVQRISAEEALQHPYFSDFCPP

Block 1
Target: Diamine acetyltransferase 1 (Homo sapiens, UniProt P21673)
Mode: inhibitor
Concentration: 10 µM
Baseline: control
Target sequence (P21673 1-171): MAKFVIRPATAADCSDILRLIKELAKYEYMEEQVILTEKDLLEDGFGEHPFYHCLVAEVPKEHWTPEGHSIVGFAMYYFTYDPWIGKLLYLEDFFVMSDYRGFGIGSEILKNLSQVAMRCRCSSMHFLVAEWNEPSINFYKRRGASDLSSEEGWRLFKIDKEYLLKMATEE
SMILES	remaining activity [%]
OC[C@H]1O[C@@](CO)(O[C@H]2O[C@H](CO[C@@H]3O[C@H](CO)[C@@H](O)[C@H](O)[C@H]3O)[C@@H](O)[C@H](O)[C@H]2O)[C@@H](O)[C@@H]1O	93.5
CC(C)C12CCC(C)(CC1)O2	103
C/C=C/c1ccc(OC)c(OC)c1	91.8
CC(C)=CCc1c2ccoc2c(O)c2oc(=O)ccc12	83.1
CSC[C@H]1O[C@@H](n2cnc3c(N)ncnc32)[C@H](O)[C@@H]1O	75.7
CC1=CC(=O)CC(C)(C)C1=O	96.1
O=c1cc(-c2ccccc2)oc2cc(O)c(O)c(O)c12	84.8
O=C(O[C@@H]1Cc2c(O)cc(O)cc2O[C@@H]1c1cc(O)c(O)c(O)c1)c1cc(O)c(O)c(O)c1	82.2
COc1cc(O)c2c(=O)cc(-c3ccc(OC)c(OC)c3)oc2c1	104

Block 2
SMILES: CCN(c1nc(N)c(C(=O)N=C(N)N)nc1Cl)C(C)C
Read-out: β-arrestin recruitment
Mode: agonist
Technique: PRESTO-Tango
Concentration: 10 µM
Baseline: untreated
target	fold over basal
CYSLTR1 (Homo sapiens, UniProt Q9Y271)	1.26
EDNRA (Homo sapiens, UniProt P25101)	0.88
Probable G-protein coupled receptor 82 (GPR82, Homo sapiens, UniProt Q96P67)	0.76
PTGFR (Homo sapiens, UniProt P43088)	0.55
Nociceptin receptor (OPRL1, Homo sapiens, UniProt P41146)	0.33
ADRB3 (Homo sapiens, UniProt P13945)	1.1
AGTR2 (Homo sapiens, UniProt P50052)	1.58
P2Y purinoceptor 1 (P2RY1, Homo sapiens, UniProt P47900)	0.94

Block 3
Cell line: normal-adjacent organoid sample E
Technique: CellTiter-Glo
Concentration: 0.1 µM
Notes: replicate mean
Baseline: DMSO
SMILES	viability [%]
Cc1ccc(-c2cnc([C@@]3(O)CC[C@H](C(=O)O)C(C)(C)C3)s2)cc1Nc1cccc(C(F)(F)F)n1	105
CC(C)CC(=O)N1CCc2nc(-c3ccc(Br)cc3)nc(N(C)Cc3ccccc3)c2C1	160
Cc1c(NC(=O)c2cc(C(N)=O)nc3cc(F)ccc23)c(C(F)(F)F)nn1Cc1ccc(C(C)(C)C)cc1	108
COCCOc1nc(-c2ccc(Cl)nc2)nc2c1CN(C(=O)c1ncn3ccccc13)CC2	131
CN1C(=O)[C@@H](N2CCc3c(nn(Cc4ccccc4)c3Br)C2=O)COc2ccccc21	98
O=C(c1ccc(F)cc1)N1CC(COc2ccc(Br)cc2)(C(=O)O)C1	96.8
COc1cc(N[C@@H]2CCCC[C@]2(O)C(F)(F)F)ccc1F	120
CNC(=O)c1ccc(Nc2ncc(C(F)(F)F)c(NCc3nccnc3N(C)S(C)(=O)=O)n2)cc1	80.8
CCCOc1ccc([C@H]2[C@H](C(=O)O)[C@@H](c3ccc4c(c3)OCO4)CN2CC(=O)Nc2c(CC)cccc2CC)cc1	122

Block 4
SMILES: CN(C)CCCn1cc(C2=C(c3c[nH]c4ccccc34)C(=O)NC2=O)c2ccccc21
Read-out: enzyme activity
Mode: inhibitor
Concentration: 0.5 µM
Baseline: control
target	remaining activity [%]
FES (Homo sapiens, UniProt P07332)	90.9
PAK5 (Homo sapiens, UniProt Q9P286)	92.8
TYRO3 (Homo sapiens, UniProt Q06418)	97.2
EPHB3 (Homo sapiens, UniProt P54753)	95.2
MUSK (Homo sapiens, UniProt O15146)	71.9
TEC (Homo sapiens, UniProt P42680)	116
Cyclin-dependent kinase 2, with cyclin E (CDK2, Homo sapiens, UniProt P24941)	80.4
CSNK1D (Homo sapiens, UniProt P48730)	97.6
PRKCQ (Homo sapiens, UniProt Q04759)	17.3
RPS6KA3 (Homo sapiens, UniProt P51812)	2.47
SGK2 (Homo sapiens, UniProt Q9HBY8)	74.4
JAK1 (Homo sapiens, UniProt P23458)	88.7
EPHA2 (Homo sapiens, UniProt P29317)	81.8
JAK2 (Homo sapiens, UniProt O60674)	93.9
PAK1 (Homo sapiens, UniProt Q13153)	84.2
CAMKK1 (Homo sapiens, UniProt Q8N5S9)	90.8
Cyclin-dependent kinase 5, with p35 (CDK5, Homo sapiens, UniProt Q00535)	90
CSNK1E (Homo sapiens, UniProt P49674)	96.3
MARK1 (Homo sapiens, UniProt Q9P0L2)	84.1
BRSK2 (Homo sapiens, UniProt Q8IWQ3)	55.6
MAP3K20 (Homo sapiens, UniProt Q9NYL2)	93.1

Repeated from above (block 1):
SMILES	remaining activity [%]
OC[C@H]1O[C@@](CO)(O[C@H]2O[C@H](CO[C@@H]3O[C@H](CO)[C@@H](O)[C@H](O)[C@H]3O)[C@@H](O)[C@H](O)[C@H]2O)[C@@H](O)[C@@H]1O	93.5
CC1=CC(=O)CC(C)(C)C1=O	96.1
O=c1cc(-c2ccccc2)oc2cc(O)c(O)c(O)c12	84.8
